# Measurements collected from several papers.
# Unk: Unk 1-810 (Mus musculus, UniProt Q8BL48)
# Chain of UniProt Q8BL48 (whole entry, looked up): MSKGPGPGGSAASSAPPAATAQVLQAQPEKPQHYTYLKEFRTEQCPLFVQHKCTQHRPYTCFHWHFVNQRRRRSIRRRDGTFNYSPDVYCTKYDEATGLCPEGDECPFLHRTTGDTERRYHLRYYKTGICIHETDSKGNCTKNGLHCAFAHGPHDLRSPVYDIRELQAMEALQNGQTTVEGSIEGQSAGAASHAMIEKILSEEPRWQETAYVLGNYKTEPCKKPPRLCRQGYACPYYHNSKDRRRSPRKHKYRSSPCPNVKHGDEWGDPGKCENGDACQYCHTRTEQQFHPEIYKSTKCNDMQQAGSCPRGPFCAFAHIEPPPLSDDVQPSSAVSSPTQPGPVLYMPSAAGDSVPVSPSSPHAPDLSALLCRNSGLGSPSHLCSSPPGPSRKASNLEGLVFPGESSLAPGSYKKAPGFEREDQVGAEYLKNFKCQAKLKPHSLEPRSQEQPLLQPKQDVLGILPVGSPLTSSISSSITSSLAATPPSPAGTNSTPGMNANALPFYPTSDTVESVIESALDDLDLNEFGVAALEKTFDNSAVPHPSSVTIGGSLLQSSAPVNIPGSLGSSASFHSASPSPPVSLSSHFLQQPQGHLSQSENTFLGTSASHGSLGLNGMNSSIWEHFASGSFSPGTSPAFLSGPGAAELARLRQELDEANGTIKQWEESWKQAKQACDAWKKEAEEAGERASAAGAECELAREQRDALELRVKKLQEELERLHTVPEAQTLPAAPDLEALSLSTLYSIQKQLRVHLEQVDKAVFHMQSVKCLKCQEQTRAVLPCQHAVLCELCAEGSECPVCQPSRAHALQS
# FKBP3: FKBP3 1-74 (Homo sapiens, UniProt Q00688)
# Chain of UniProt Q9C5T3 (whole entry, looked up): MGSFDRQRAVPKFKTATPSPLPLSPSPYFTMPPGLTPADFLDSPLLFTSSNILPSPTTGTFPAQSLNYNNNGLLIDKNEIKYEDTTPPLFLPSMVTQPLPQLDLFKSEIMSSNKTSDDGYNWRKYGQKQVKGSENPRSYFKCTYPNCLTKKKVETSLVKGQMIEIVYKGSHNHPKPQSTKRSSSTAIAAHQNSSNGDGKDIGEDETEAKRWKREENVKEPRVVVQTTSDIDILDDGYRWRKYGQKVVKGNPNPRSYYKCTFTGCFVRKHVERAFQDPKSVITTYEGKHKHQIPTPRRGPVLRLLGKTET
# Chain of UniProt Q92945 (whole entry, looked up): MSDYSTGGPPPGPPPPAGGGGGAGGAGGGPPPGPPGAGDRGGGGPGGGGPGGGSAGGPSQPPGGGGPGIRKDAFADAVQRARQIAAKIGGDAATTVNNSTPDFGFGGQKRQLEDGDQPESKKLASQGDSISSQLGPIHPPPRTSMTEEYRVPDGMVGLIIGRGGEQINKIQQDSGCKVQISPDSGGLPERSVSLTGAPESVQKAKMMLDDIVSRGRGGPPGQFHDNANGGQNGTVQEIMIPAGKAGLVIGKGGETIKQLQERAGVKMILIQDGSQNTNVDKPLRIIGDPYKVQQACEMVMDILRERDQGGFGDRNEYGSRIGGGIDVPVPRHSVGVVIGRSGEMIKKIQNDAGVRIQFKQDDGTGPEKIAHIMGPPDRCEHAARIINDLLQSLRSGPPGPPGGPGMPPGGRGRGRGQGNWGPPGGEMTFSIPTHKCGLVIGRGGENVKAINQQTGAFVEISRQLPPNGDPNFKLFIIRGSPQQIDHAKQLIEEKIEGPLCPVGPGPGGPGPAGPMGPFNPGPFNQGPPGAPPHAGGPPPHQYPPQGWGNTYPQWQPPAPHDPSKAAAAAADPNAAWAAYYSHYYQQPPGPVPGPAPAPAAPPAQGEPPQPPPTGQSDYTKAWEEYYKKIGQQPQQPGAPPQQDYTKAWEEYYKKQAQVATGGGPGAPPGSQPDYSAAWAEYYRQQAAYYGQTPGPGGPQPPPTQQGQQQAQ
# Chain of UniProt O35185 (whole entry, looked up): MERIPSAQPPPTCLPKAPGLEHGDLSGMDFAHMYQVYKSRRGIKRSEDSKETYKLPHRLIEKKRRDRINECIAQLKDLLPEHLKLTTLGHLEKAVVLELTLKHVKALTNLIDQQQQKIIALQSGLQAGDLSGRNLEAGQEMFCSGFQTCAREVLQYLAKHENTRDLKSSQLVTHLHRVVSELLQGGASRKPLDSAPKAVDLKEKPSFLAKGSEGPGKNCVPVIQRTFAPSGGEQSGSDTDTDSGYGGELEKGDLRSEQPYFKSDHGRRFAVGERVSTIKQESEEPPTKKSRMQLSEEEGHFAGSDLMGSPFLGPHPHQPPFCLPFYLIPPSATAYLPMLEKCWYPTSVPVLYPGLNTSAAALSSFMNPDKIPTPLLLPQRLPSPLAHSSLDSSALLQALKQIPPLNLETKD
# Chain of UniProt P05549 (whole entry, looked up): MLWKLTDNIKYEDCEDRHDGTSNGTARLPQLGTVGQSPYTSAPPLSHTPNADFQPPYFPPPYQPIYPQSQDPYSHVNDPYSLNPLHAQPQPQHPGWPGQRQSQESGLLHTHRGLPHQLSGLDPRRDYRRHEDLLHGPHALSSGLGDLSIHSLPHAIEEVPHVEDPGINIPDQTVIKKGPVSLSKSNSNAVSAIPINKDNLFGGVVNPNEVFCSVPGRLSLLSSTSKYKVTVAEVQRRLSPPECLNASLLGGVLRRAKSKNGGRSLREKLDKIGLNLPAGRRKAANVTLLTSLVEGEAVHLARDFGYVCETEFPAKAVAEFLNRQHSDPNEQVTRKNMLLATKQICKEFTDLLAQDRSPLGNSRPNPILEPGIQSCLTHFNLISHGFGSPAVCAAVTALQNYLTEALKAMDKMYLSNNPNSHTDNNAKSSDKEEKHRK
# Chain of UniProt Q06348 (whole entry, looked up): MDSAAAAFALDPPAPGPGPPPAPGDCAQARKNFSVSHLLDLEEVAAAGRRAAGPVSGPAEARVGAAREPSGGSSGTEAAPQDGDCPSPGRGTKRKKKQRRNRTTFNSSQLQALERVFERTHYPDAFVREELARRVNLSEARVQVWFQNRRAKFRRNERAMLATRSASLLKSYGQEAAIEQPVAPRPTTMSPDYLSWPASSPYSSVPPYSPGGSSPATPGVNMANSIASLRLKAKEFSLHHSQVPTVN
Strand,target,assay,system,conditions,binding
CTGAAGTAATACCCCAGGATGTGAACAT (dsDNA),"TFAP2A full length assumed (Homo sapiens, UniProt P05549)","supershift with antibody, EMSA","double-stranded DNA, one strand shown",,binds
ACUUAGAAUUAUUAAUGA (ssRNA),Unk,EMSA,RNA,,binds
TGTTTTGACCATTTATTAAAATGAACCTTTTCTTGTCAAACAT (dsDNA),"WRKY26 full length assumed (Arabidopsis thaliana, UniProt Q9C5T3)",EMSA,"double-stranded DNA, one strand shown",,binds
CTCTAATTAGTGGTTT (dsDNA),"Prrx2 full length assumed (Mus musculus, UniProt Q06348)",EMSA,"double-stranded DNA, one strand shown","without nuclear extract, not purified",binds
GGAUGCCG (ssRNA),FKBP3,NMR,RNA,,no binding
TGCTGATTGGCCATGTGCGCTCACCCGAGGGGCGGGG (dsDNA),"Bhlhe40 full length assumed (Mus musculus, UniProt O35185)",EMSA,"double-stranded DNA, one strand shown",not purified,binds
GGATGCCG (ssDNA),FKBP3,NMR,single-stranded DNA,,no binding
ACGUAGAAAAUUUGCAGCU (ssRNA),Unk,EMSA,RNA,,binds
RNA 1 CUGAGCUCAG / RNA 2 CUGAGCUCAG (dsRNA 10 bp palindromic duplex),FKBP3,NMR,double-stranded RNA,,binds
GAUGGAGAUGGGCCCAUGAAUUGCCGGCCGCUUUAAUC (ssRNA),"KHSRP full length assumed (Homo sapiens, UniProt Q92945)",UV crosslinking,RNA,,no binding
RNA 1 GACGCGUC / RNA 2 GACGCGUC (dsRNA 8 bp palindromic duplex),FKBP3,NMR,double-stranded RNA,,binds
TGTATCGTCTTG (dsDNA (Trichomonas vaginalis); 12-mer duplex),"MYB21 40-156 (Trichomonas vaginalis, UniProt Q58HP3)",NMR,"double-stranded DNA, one strand shown",,binds

# Some of these lines once more:
Strand,target,assay,system,conditions,binding
TGTATCGTCTTG (dsDNA (Trichomonas vaginalis); 12-mer duplex),"MYB21 40-156 (Trichomonas vaginalis, UniProt Q58HP3)",NMR,"double-stranded DNA, one strand shown",,binds
ACUUAGAAUUAUUAAUGA (ssRNA),Unk,EMSA,RNA,,binds
